Assay results of several laboratories.
Numbered parts are unrelated; each lists some results of a single study. Substitutions count along the parent as printed.

Series 1
Target: Centromere-binding protein 1, full length, N-terminal tag (CBF1, Saccharomyces cerevisiae, UniProt P17106, residues 1-351)
Chain of UniProt P17106 (whole entry, looked up): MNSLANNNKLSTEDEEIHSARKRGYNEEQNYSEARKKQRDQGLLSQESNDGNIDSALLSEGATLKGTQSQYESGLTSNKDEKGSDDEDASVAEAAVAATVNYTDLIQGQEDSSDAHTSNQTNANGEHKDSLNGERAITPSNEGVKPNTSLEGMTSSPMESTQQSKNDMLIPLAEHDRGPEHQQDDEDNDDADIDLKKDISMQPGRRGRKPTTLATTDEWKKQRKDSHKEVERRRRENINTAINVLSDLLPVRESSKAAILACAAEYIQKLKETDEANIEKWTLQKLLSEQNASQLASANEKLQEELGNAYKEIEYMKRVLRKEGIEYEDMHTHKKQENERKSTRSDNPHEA
Technique: protein-binding microarray
Form: double-stranded DNA, one strand shown
Medium: in vitro
Concentration: 0.8 µM
Setting: whole 60-bp probe, no competitor
Reading: higher = stronger binding
Oligonucleotide | fluorescence intensity [a.u.]
TGTACGAAGCTATTTCACGTTTCTATAGTAGTTAGGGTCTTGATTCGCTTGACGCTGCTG | 573
GAATCTTTTCCTCGTGATTCTTTGTGATGCTCATAGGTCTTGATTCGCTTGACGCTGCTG | 1360
CCTAACTACTATAATATCATGACATAGCTTCGTACAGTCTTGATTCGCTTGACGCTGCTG | 531
CTAAGCGGCTGGCAGCATGTGCATGATAATGATTTCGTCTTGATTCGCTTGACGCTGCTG | 873
CTAGACCATACTATCCAGGTGAGTTTGTCATGGTTCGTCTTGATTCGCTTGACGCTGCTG | 525
CCTAACTACTATAATCATGTGACATAGCTTCGTACAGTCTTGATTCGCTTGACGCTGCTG | 4470
CCTAACTACTATACTCATGTCACATAGCTTCGTACAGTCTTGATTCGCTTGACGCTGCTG | 553
TGTACGAAGCTATACGGTGTGATTATAGTAGTTAGGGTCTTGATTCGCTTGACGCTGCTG | 528

Series 2
Target: PABPC1L2, full length, GST fusion (mouse, UniProt A0ABA7IW68)
Technique: RNAcompete
Form: RNA
Medium: in vitro
Concentration: 20 nM
Setting: 7-mer, probes averaged, single round
Relative to: mean of 7-mers
Reading: higher = stronger binding
Target sequence (chain): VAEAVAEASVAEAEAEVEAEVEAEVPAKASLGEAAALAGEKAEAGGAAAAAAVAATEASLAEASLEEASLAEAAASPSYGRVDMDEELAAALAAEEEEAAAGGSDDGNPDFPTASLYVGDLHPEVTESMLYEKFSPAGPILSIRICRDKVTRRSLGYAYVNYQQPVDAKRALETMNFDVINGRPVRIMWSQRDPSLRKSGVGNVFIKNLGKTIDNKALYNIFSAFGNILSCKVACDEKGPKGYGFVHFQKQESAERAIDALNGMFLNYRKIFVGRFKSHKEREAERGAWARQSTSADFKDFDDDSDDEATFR
Oligonucleotide | 7-mer Z-score
AACAAAC | 1.69
CACAAUC | -0.151
AGUGGCA | 0.167
AAAUACA | 2.12
AAAUUAC | 1.35
GUUAGGC | -0.0971
CCUAGAC | -0.213
CGCGCGC | -0.463

Series 3
Target: Ras GTPase-activating protein-binding protein 1, full length (G3BP1, Homo sapiens, UniProt Q13283)
Chain of UniProt Q13283 (whole entry, looked up): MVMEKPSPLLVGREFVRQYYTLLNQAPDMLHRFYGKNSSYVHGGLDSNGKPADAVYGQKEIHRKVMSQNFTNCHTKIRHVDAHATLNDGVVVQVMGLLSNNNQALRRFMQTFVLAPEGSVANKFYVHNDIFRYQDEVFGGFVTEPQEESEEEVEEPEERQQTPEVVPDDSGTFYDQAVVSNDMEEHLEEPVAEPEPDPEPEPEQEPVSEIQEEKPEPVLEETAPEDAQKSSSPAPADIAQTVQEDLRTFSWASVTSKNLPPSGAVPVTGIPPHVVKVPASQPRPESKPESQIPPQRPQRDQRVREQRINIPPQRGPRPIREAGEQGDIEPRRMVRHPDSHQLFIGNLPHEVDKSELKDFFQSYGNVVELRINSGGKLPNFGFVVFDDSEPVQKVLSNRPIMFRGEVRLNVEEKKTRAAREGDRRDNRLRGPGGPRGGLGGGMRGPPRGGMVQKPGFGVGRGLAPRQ
Technique: RNA Bind-n-Seq
Form: RNA
Medium: in vitro
Concentration: 200 nM
Setting: whole 134-nt RNA, ends assumed
Added: 150 mM KCl
Relative to: input library
Reading: higher = stronger binding
Oligonucleotide | log2 enrichment
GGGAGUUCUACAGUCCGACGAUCUGGCCCUGGUGGCAUGCGUGGAGGAAGAGGUGGCCUCAUGGAUCGUGGUGGUCCCGGUGGAAUGUUCAGAGGUGGCCGUGGUGGAGACAGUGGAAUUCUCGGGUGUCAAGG | 0.377
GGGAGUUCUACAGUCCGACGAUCCAAGUCCUGUGCUACACAUCGUAUGUACCGAAUCGGGGAGGGGUGGGGUUUGGGGAAAGUAUUAUGUUACGCCGUUCGGAUCUGCACUUCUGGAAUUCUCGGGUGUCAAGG | 1.26
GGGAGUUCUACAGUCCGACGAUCUCCUCAAGUCCUGUGCUACACAUCGUAUGUACCGAAUCGGUUUGGUGGUGGAAAGUAUUAUGUUACGCCGUUCGGAUCUGCACUUCCAGCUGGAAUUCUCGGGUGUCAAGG | -0.519
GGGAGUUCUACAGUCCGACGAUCGUCCUGUGCUACACAUCGUAUGUACCGAAUCGGAAAAAGGGGAAAAAGGGGAAAAAGGAAAGUAUUAUGUUACGCCGUUCGGAUCUGCACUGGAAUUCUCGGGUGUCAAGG | -0.429
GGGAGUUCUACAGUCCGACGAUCAGUCCUGUGCUACACAUCGUAUGUACCGAAUCAAACCCCCCCAAACCCAAAUUUAAAAAAGUAUUAUGUUACGCCGUUCGGAUCUGCACUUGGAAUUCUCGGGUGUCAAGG | -0.218
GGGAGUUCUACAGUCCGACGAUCCUCAAGUCCUGUGCUACACAUCGUAUGUACCGAAUCGGGGAAGGAAGGAAGGGGAAAGUAUUAUGUUACGCCGUUCGGAUCUGCACUUCCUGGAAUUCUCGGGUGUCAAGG | -0.261
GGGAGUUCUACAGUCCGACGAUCCCUGUGCUACACAUCGUAUGUACCGAAUCAAACCCCCCCAAAUUUUUUUAAACCCCCAAAAAAGUAUUAUGUUACGCCGUUCGGAUCUGCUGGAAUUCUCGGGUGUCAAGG | 0.178
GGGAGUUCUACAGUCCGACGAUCGUCCUGUGCUACACAUCGUAUGUACCGAAUCAAAUUUAAAUUUUUUUAAACCCCCAAAAAAGUAUUAUGUUACGCCGUUCGGAUCUGCACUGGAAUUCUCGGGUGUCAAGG | -0.177

Mixed results
Parent: PafA, mature enzyme, eGFP fusion (Elizabethkingia meningoseptica, UniProt Q9KJX5); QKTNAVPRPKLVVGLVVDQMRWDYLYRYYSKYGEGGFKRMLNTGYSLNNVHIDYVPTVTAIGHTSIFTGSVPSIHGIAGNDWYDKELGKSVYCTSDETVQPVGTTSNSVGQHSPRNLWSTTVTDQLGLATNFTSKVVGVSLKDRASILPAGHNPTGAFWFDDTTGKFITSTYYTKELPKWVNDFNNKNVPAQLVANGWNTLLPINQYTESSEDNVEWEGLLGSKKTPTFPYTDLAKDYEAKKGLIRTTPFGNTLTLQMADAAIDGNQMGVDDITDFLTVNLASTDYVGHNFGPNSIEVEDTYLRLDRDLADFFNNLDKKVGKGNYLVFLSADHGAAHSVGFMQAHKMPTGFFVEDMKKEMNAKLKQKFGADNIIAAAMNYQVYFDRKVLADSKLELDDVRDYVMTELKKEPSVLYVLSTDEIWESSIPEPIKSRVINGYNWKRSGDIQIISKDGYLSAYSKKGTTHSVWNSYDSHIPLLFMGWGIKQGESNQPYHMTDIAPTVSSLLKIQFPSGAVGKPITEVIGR
Substitution | target | assay | system | conditions | how to read | endpoint | result
E239G | inorganic phosphate, free oxyanion | microfluidic competitive inhibition | in vitro, cell-free expressed | not given, derived from inhibition constants, unchanged parent 615000 nM | lower = stronger binding | phosphate dissociation constant | 441 µM

Excerpt of the above (series 3):
Oligonucleotide | log2 enrichment
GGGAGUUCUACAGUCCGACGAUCGUCCUGUGCUACACAUCGUAUGUACCGAAUCGGAAAAAGGGGAAAAAGGGGAAAAAGGAAAGUAUUAUGUUACGCCGUUCGGAUCUGCACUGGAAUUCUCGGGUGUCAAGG | -0.429
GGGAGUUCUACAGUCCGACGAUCAGUCCUGUGCUACACAUCGUAUGUACCGAAUCAAACCCCCCCAAACCCAAAUUUAAAAAAGUAUUAUGUUACGCCGUUCGGAUCUGCACUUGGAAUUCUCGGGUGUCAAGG | -0.218
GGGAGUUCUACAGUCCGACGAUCCUCAAGUCCUGUGCUACACAUCGUAUGUACCGAAUCGGGGAAGGAAGGAAGGGGAAAGUAUUAUGUUACGCCGUUCGGAUCUGCACUUCCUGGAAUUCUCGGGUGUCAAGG | -0.261
